Experimental data gathered from unrelated publications.
Protocols differ between the studies behind these lines. pIC50: −log10 of the molar value. In brackets after ≈: the same amount, converted by molar mass.
Chain of UniProt P47211 (whole entry, looked up): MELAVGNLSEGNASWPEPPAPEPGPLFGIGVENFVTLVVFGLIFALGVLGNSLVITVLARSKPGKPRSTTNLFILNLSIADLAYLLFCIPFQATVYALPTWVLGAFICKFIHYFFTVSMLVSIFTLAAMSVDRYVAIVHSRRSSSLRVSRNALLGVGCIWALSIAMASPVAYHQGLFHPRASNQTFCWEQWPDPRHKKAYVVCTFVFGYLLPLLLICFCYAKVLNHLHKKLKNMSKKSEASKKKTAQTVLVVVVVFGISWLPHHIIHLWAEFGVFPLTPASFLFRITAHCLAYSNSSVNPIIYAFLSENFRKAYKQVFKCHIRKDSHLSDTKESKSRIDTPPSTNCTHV
Chain of UniProt Q15046 (whole entry, looked up): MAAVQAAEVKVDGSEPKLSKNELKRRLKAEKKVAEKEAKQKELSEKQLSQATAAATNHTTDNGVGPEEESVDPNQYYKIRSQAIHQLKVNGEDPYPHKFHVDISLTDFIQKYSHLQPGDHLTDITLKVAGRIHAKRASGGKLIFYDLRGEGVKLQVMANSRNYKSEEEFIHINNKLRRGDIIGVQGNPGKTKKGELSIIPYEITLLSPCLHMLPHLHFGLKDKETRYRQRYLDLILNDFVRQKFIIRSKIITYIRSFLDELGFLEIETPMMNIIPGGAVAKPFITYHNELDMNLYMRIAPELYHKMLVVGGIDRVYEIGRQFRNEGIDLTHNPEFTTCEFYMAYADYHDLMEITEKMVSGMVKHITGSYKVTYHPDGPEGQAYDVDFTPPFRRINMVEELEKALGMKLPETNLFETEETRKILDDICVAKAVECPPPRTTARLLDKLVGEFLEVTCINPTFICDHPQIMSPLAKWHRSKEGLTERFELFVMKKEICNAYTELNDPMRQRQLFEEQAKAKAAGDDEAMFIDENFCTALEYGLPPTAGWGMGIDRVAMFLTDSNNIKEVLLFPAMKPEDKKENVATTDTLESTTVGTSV

SMILES	target or system	assay	system	conditions	how to read	measurement	value
CC1(C)CN(C(=O)c2ccc(-c3cccc4nc(NC(=O)C5CC5)nn34)cc2)C1	NLRP3 inflammasome			10 µM		inhibition	43%
O=C(Nc1cccnn1)N1CCN([C@@H]2CCOc3cc(C(F)(F)F)ccc32)CC1	L-type calcium channel, dihydropyridine site	binding		20 µM		inhibition	-10%
C[C@H]1CN(c2n[nH]c3nc(N[C@H]4CC[C@H](NS(=O)(=O)CCC(F)(F)F)CC4)ncc23)CCO1	Lysine--tRNA ligase (KARS1, Homo sapiens, UniProt Q15046)	Kinobeads competition, measured: KARS		20 µM, unit not given	reference: vehicle	remaining binding	1.15
CC(C)CC(=O)OC[C@H]1O[C@@](C#N)(c2ccc3c(N)ncnn23)[C@H](O)[C@@H]1O	adenosine transporter guinea pig	radioligand binding		20 µM		inhibition	49%
Cn1c(=O)n(-c2ccc(C(C)(C)C#N)cc2)c2c3cc(-c4cnc5ccccc5c4)ccc3ncc21	NLRP3 inflammasome			10 µM		inhibition	-9.43%
COc1cc(Nc2ncc(F)c(Nc3ccc4c(n3)NC(=O)C(C)(C)O4)n2)cc(OC)c1OC	Galanin receptor type 1 (GALR1, Homo sapiens, UniProt P47211)					pIC50	< 5.00
CC[C@@](C)(Nc1ccnc(-c2c[nH]c3ncccc23)n1)C(=O)NCC(F)(F)F	NLRP3 inflammasome			10 µM		inhibition	-4.44%
CCCCCCCCCC(=O)N[C@H]1CCOC1=O	ExpR1 (Pectobacterium carotovorum)	cellulase activity, antagonist	Pectobacterium carotovorum, single-ExpR1 strain	5 µM, 4 h, added: OHHL 5 µM		inhibition	91%
c1ccc(C(NCCNC(c2ccccc2)c2ccccc2)c2ccccc2)cc1	L-type calcium channel, rat, Benzothiazepine site	binding		10 µM, Eurofins selectivity panel		inhibition	56%
CC[C@H](C)[C@H](NC(=O)[C@H](C)NC(=O)[C@H](CCCCN)NC(=O)[C@H](CC(C)C)NC(=O)[C@H](C)NC(=O)[C@@H](NC(=O)[C@H](Cc1c[nH]cn1)NC(=O)[C@H](CC(C)C)NC(=O)[C@@H](NC(=O)[C@@H](NC(=O)[C@H](CCCCN)NC(=O)[C@H](C)NC(=O)[C@H](C)NC(=O)[C@H](CO)NC(=O)[C@H](CCCCN)NC(=O)[C@H](Cc1ccccc1)NC(=O)[C@@H](NC(=O)[C@H](CCCCN)NC(=O)[C@H](CC(C)C)NC(=O)[C@H](Cc1ccccc1)NC(=O)[C@H](CO)NC(=O)[C@H](CCCCN)NC(=O)[C@H](Cc1c[nH]c2ccccc12)NC(=O)[C@H](CCCCN)NC(C)=O)[C@@H](C)O)[C@@H](C)O)C(C)C)[C@@H](C)O)C(=O)N[C@@H](CO)C(=O)N[C@@H](CO)C(N)=O	Staphylococcus aureus		ATCC 29213			MIC90	8 µg/mL (≈ 2.73 µM)
C[C@H](C(=O)N[C@H]1COc2ccccc2[C@@H]1S(C)(=O)=O)c1ccc(F)cc1	phorbol ester site, mouse	binding		10 µM, Eurofins selectivity panel		inhibition	-3%
CCCCCC(=O)CC(=O)N[C@H]1CCOC1=O	ExpR1 (Pectobacterium carotovorum)	cellulase activity, antagonist	Pectobacterium carotovorum, single-ExpR1 strain	5 µM, 4 h, added: OHHL 5 µM		inhibition	65%
CC[C@H](C)[C@@H]1NC(=O)[C@@H]2CCCN2C(=O)[C@H](CC(C)C)NC(=O)[C@H](CC(C)C)NC(=O)CNC(=O)[C@@H](NC(=O)[C@@H](NC(=O)[C@H](CC(=O)O)NC(=O)CNC(=O)[C@@H](NC(=O)[C@H](C)NC(=O)CNC(=O)[C@H](CCCCN)NC(=O)[C@H](CC(C)C)NC(=O)[C@H](CC(C)C)NC(=O)[C@H](CCCCN)NC(=O)CNC(=O)[C@@H](NC(=O)[C@@H](N)CC(C)C)C(C)C)C(C)C)C(C)C)CSSC[C@@H](C(=O)O)NC1=O		RNA-seq, measured: Fgl2	mouse, traumatic brain injury model, frontal cortex and hippocampus	dose not given	reference: TBI alone	log2 fold change	-1.46
O=C(CCc1ccc(Br)cc1)N[C@H]1CCOC1=O	ExpR1 (Pectobacterium carotovorum)	cellulase activity, antagonist	Pectobacterium carotovorum, single-ExpR1 strain	5 µM, 4 h, added: OHHL 5 µM		inhibition	78%
CO[C@H]1C[C@@H]2CC[C@@H](C)[C@@](O)(O2)C(=O)C(=O)N2CCCC[C@H]2C(=O)O[C@H]([C@H](C)C[C@@H]2CC[C@@H](OC(=O)NCCOCCOCCOCCOCCOCCOCCOCCOCCC(=O)N3CCc4cc(Cn5nc(-c6ccc7oc(N)nc7c6)c6c(N)ncnc65)ccc4C3)[C@H](OC)C2)C[C@@H](O)[C@H](C)/C=C(\C)[C@@H](O)[C@@H](OC)C(=O)[C@H](C)C[C@H](C)/C=C/C=C/C=C/1C		phase 1 dose escalation, measured: mucositis	advanced solid tumour patients	intravenous, 10 mg weekly, grade ≥3		dose-reducing adverse events	0%

Repeated from above:
SMILES	target or system	assay	system	conditions	how to read	measurement	value
CCCCCC(=O)CC(=O)N[C@H]1CCOC1=O	ExpR1 (Pectobacterium carotovorum)	cellulase activity, antagonist	Pectobacterium carotovorum, single-ExpR1 strain	5 µM, 4 h, added: OHHL 5 µM		inhibition	65%
CC[C@H](C)[C@@H]1NC(=O)[C@@H]2CCCN2C(=O)[C@H](CC(C)C)NC(=O)[C@H](CC(C)C)NC(=O)CNC(=O)[C@@H](NC(=O)[C@@H](NC(=O)[C@H](CC(=O)O)NC(=O)CNC(=O)[C@@H](NC(=O)[C@H](C)NC(=O)CNC(=O)[C@H](CCCCN)NC(=O)[C@H](CC(C)C)NC(=O)[C@H](CC(C)C)NC(=O)[C@H](CCCCN)NC(=O)CNC(=O)[C@@H](NC(=O)[C@@H](N)CC(C)C)C(C)C)C(C)C)C(C)C)CSSC[C@@H](C(=O)O)NC1=O		RNA-seq, measured: Fgl2	mouse, traumatic brain injury model, frontal cortex and hippocampus	dose not given	reference: TBI alone	log2 fold change	-1.46
O=C(CCc1ccc(Br)cc1)N[C@H]1CCOC1=O	ExpR1 (Pectobacterium carotovorum)	cellulase activity, antagonist	Pectobacterium carotovorum, single-ExpR1 strain	5 µM, 4 h, added: OHHL 5 µM		inhibition	78%
